Results of several laboratories.
Each line is one published result; not all experiments were run side by side. Values joined by “and” are separate records of one study, mostly repeats; a detail may differ. ± marks the error that the study gave.
Chain of UniProt Q9H3Y6 (whole entry, looked up): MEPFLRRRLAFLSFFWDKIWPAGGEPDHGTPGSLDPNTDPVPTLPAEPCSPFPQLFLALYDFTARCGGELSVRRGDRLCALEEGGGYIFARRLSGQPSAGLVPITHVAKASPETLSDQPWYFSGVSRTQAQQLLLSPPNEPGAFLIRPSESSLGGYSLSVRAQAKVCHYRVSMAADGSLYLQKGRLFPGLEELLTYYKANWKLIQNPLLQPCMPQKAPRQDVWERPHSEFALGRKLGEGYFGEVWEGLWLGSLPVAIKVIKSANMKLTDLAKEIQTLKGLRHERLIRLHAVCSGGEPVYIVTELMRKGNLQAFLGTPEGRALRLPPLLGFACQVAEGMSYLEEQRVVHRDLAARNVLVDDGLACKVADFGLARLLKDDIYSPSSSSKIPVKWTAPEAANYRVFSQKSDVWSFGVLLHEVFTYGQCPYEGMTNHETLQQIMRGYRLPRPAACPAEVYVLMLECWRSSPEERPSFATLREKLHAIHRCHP

Cc1ccc(N(O)/N=N/c2ccc(S(=O)(=O)Nc3nccs3)cc2)cc1 gave an inhibition of 96.4% (ABTS scavenging; 300 µg/mL).
C=CC(=O)Nc1cccc(Cn2ncc3cnc(Nc4cnn(CCOC)c4)nc32)c1 — result for “percent of control”: 100% (PRKD2 human; binding, KINOMEscan; 100 nM; lower = stronger binding).
Cc1nn(-c2cccc(N)c2)c(=O)c2cnc(Nc3ccc(N4CCNCC4)cc3)nc12 gave an IC50 of 1830 nM (Tyrosine-protein kinase Srms (SRMS, Homo sapiens, UniProt Q9H3Y6); enzyme activity, inhibitor).
Under NLRP3 level, CC(C)C[C@H](NC(=O)[C@H](Cc1ccccc1)NC(=O)[C@H](C)NC(=O)[C@@H](CS)NC(=O)CNC(=O)[C@H](N)CO)C(=O)N[C@@H](CO)C(=O)N[C@H](C(=O)N[C@@H](CCCCN)C(=O)N[C@@H](CCCCN)C(=O)N[C@@H](CCC(N)=O)C(=O)N[C@@H](Cc1ccccc1)C(=O)N[C@@H](CCC(=O)O)C(=O)N[C@@H](CCC(=O)O)C(=O)N[C@@H](CC(C)C)C(=O)N[C@H](C(=O)N[C@@H](CC(C)C)C(=O)NCC(=O)N[C@@H](CCC(=O)O)C(=O)N[C@@H](Cc1ccccc1)C(=O)N[C@@H](CC(C)C)C(=O)N[C@H](CCCCN)C(=O)N[C@H](CC(C)C)C(=O)N[C@H](CC(=O)O)C(=O)N[C@@H](CCCNC(=N)N)C(=O)N[C@H](CCCNC(=N)N)C(=O)N[C@@H](CCCNC(=N)N)C(=O)N[C@@H](CCCCN)C(=O)O)[C@@H](C)O)C(C)C is recorded as “decreased” (mouse A549 xenograft, tumour; intratumoral and intravenous, dose not given).
Cc1ncsc1-c1ccc(C(C)NC(=O)C2CC(O)CN2C(=O)C(NC(=O)CCCCCCCCCCN2CCCC(Nc3ncc(Cl)c(Nc4ccccc4S(=O)(=O)C(C)C)n3)C2)C(C)(C)C)cc1 (stereo not drawn): “log2 fold change” -1.26 (22Rv1; RNA-seq, measured: ZNF57 mRNA; concentration not given; reference: DMSO).
COC1OC(C)C(OS(=O)(=O)O)C(OC2OC(C)C(OS(=O)(=O)O)C(OC3OC(C)C(OS(=O)(=O)O)C(OC4OC(C)C(OS(=O)(=O)O)C(OC5OC(C)C(OS(=O)(=O)O)C(OC6OC(C)C(OS(=O)(=O)O)C(OC7OC(C)C(OS(=O)(=O)O)C(OC8OC(C)C(OS(=O)(=O)O)C(OC9OC(C)C(OS(=O)(=O)O)C(OC%10OC(C)C(OS(=O)(=O)O)C(OS(=O)(=O)O)C%10OS(=O)(=O)O)C9OS(=O)(=O)O)C8OS(=O)(=O)O)C7OS(=O)(=O)O)C6OS(=O)(=O)O)C5OS(=O)(=O)O)C4OS(=O)(=O)O)C3OS(=O)(=O)O)C2OS(=O)(=O)O)C1OS(=O)(=O)O (stereo not drawn) — result for “activated partial thromboplastin time”: 46.5 s and 46.9 s and 46.8 s (human plasma; 8 µg/mL).
CN1CCC[C@]1(C)/C=C/S(=O)(=O)NC(=O)Nc1c2c(cc3c1CCC3)CCC2 has an IL-18 inhibition of 130% (human, whole blood ex vivo; 50 mg single dose, 3 h, single ascending dose, together with: LPS and ATP).
CNS(=O)(=O)Nc1nccc(Cc2c(C)c3ccc(Oc4ncccc4F)cc3oc2=O)c1F has an IC50 of 2.02 nM (SK-CO-1; cell viability; 7 days).
COc1ccc(C(=O)CCc2cc(C(CCc3ccc(O)cc3OC)c3ccc(O)cc3)c(O)cc2OC)cc1 (racemic) gave a TXB2 level of 1330 ± 482 pg/mL (human blood; 3 µM, together with: A23187).
COC1OC(C)C(OS(=O)(=O)O)C(OC2OC(C)C(OS(=O)(=O)O)C(OC3OC(C)C(OS(=O)(=O)O)C(OS(=O)(=O)O)C3O)C2O)C1O (stereo not drawn): “activated partial thromboplastin time” 42.4 ± 0.5 s (human plasma; 128 µg/mL).
With Nc1ncc(-c2cc(-c3cnn(CC(F)(F)F)c3)ncc2F)nc1C(=O)NC1CNCC(F)C1 (stereo not drawn) the remaining binding was 36% (TRKA; KINOMEscan competition binding; 1 µM; reference: DMSO control).
COC1CN([C@H]2CC[C@H]([C@@]3(C)Oc4c(Cl)cc(C(=O)NCc5c(SC)cc(C)[nH]c5=O)c(C)c4O3)CC2)C1 — result for “log2 fold change”: 0.243 (RNA-seq, measured: PFKFB2 mouse homolog; mouse, HT-1376 xenograft, whole blood; dose not given; reference: vehicle).
For Nc1nc2cc(CC[C@H]3C[C@@H](n4ccc5c(N)ncnc54)[C@H](O)[C@@H]3O)ccc2cc1Br, the %ΔTGI was 105% (NCI-H520 xenograft, mouse; 3.0 mg/kg/day, day 27).
COC1OC(C)C(OC2OC(C)C(O)C(OC3OC(C)C(OC4OC(C)C(O)C(OC5OC(C)C(OC6OC(C)C(O)C(OC7OC(C)C(OC8OC(C)C(O)C(OC9OC(C)C(OC%10OC(C)C(O)C(OS(=O)(=O)O)C%10OS(=O)(=O)O)C(OS(=O)(=O)O)C9OS(=O)(=O)O)C8OS(=O)(=O)O)C(OS(=O)(=O)O)C7OS(=O)(=O)O)C6OS(=O)(=O)O)C(OS(=O)(=O)O)C5OS(=O)(=O)O)C4OS(=O)(=O)O)C(OS(=O)(=O)O)C3OS(=O)(=O)O)C2OS(=O)(=O)O)C(OS(=O)(=O)O)C1OS(=O)(=O)O (stereo not drawn) — result for “activated partial thromboplastin time”: 49.2 s and 50.7 s and 50.9 s (human plasma; 16 µg/mL).
CC(=O)[O-].O.O.O.O.[Mn+2].[O-]c1ccc(Br)cc1C=NCCN1CCOCC1 has an inhibition of 30.2% (hydroxyl radical scavenging; 120 µM).

Excerpt of the above:
CNS(=O)(=O)Nc1nccc(Cc2c(C)c3ccc(Oc4ncccc4F)cc3oc2=O)c1F has an IC50 of 2.02 nM (SK-CO-1; cell viability; 7 days).
COc1ccc(C(=O)CCc2cc(C(CCc3ccc(O)cc3OC)c3ccc(O)cc3)c(O)cc2OC)cc1 (racemic) gave a TXB2 level of 1330 ± 482 pg/mL (human blood; 3 µM, together with: A23187).
